Assay results collected from several papers.
Parts stem from different laboratories: compare values within a part only.
UniProt Q9UHD2, sequence (whole entry, looked up): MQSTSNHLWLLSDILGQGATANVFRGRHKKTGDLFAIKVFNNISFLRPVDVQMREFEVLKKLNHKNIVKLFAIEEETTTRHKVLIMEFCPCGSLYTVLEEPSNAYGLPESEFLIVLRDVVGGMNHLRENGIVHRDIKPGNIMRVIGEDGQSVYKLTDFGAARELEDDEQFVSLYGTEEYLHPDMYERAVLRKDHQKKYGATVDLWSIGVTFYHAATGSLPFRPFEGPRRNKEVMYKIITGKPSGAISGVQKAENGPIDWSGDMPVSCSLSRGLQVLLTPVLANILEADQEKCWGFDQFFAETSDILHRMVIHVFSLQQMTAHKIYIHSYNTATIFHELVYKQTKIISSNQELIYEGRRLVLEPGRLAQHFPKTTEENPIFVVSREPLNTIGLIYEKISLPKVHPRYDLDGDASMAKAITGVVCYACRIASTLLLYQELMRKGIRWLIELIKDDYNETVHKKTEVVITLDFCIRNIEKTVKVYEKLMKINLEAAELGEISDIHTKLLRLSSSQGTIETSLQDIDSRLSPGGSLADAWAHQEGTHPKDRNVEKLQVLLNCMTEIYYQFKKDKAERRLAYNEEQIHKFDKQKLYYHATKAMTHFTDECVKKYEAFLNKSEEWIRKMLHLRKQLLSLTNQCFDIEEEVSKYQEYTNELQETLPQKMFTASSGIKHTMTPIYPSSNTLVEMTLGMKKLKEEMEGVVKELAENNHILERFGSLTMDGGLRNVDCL
UniProt Q9UKI8, sequence (whole entry, looked up): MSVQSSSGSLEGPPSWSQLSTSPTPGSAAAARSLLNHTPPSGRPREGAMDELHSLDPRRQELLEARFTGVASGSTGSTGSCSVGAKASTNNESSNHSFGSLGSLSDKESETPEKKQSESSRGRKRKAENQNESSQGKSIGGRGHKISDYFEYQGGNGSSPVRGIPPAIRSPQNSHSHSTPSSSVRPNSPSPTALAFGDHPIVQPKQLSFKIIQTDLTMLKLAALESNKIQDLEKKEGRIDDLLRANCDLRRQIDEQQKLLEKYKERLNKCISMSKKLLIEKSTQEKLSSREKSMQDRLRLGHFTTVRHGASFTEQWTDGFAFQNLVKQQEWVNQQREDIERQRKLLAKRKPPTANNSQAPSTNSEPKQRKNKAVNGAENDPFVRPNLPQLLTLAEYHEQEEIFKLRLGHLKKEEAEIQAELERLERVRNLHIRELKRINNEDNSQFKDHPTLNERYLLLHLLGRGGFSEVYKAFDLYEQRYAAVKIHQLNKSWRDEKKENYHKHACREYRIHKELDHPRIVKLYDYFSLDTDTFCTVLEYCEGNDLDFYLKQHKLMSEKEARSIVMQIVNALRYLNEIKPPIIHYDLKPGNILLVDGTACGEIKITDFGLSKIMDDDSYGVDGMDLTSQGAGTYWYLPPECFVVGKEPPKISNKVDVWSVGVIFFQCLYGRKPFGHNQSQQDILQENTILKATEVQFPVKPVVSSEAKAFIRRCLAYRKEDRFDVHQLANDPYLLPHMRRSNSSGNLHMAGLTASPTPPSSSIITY
UniProt Q8TD19, sequence (whole entry, looked up): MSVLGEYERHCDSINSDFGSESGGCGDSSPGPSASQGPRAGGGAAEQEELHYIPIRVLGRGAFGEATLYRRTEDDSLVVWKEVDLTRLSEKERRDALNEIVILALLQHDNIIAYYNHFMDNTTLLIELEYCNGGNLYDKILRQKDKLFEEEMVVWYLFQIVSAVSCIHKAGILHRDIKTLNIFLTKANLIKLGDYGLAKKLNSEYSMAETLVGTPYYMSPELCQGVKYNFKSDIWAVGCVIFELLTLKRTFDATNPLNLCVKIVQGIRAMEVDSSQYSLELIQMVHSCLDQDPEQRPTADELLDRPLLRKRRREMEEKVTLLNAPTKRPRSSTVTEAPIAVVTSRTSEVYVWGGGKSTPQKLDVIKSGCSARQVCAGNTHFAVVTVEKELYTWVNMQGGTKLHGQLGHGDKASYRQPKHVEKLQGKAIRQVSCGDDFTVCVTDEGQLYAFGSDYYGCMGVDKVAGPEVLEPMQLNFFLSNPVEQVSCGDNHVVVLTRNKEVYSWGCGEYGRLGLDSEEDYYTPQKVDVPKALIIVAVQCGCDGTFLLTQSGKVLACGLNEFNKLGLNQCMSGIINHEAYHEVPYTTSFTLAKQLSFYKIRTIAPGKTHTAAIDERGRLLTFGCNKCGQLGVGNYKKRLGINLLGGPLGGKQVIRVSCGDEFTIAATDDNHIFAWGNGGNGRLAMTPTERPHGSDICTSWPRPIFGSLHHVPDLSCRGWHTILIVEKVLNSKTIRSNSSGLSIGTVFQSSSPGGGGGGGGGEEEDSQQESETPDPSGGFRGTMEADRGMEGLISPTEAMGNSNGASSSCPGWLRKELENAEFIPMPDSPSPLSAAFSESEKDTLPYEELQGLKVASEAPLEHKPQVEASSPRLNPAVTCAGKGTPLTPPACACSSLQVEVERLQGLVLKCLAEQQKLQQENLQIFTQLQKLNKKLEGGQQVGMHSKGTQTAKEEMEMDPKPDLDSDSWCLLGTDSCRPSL
UniProt Q9H093, sequence (whole entry, looked up): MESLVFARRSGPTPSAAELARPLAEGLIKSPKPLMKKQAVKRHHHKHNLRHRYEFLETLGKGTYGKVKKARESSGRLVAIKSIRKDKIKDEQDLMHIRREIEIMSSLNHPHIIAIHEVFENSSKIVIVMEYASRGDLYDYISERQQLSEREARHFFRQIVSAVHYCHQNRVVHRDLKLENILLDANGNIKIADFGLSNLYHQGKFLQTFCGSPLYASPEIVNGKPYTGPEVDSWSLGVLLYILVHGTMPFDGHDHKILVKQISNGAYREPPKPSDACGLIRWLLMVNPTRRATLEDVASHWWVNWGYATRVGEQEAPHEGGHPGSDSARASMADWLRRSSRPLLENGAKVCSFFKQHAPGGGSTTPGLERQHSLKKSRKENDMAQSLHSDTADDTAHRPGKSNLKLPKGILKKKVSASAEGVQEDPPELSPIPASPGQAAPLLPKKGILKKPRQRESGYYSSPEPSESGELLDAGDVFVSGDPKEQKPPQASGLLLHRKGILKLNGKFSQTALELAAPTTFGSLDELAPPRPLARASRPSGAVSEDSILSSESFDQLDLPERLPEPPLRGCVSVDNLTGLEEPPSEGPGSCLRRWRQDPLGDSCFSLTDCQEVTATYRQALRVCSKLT
UniProt O15530, sequence (whole entry, looked up): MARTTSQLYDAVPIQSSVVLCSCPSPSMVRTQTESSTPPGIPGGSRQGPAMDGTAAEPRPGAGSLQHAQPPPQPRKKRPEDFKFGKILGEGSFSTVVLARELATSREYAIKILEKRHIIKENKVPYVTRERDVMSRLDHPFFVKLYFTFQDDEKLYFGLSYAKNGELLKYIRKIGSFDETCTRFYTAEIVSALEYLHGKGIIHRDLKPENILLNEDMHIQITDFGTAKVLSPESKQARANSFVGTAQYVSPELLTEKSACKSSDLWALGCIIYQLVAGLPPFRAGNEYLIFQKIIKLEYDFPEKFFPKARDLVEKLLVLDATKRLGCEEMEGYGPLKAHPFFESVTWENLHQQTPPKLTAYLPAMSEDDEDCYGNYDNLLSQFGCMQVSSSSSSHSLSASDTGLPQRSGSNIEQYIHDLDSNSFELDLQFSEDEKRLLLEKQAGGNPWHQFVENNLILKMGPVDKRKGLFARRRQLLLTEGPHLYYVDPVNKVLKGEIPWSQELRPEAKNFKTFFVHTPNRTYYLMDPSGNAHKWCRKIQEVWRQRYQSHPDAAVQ

Block 1
Target: Interferon regulatory factor 7, full length, phosphomimetic (IRF7, Homo sapiens, UniProt Q92985, residues 1-503, S471D/S472D/S475D/S476D/S477D/S483D/S484D/S487D)
Method: protein-binding microarray
Molecule type: double-stranded DNA, one strand shown
Sample: in vitro
Concentration: 2200 nM top
Setting: 60-bp whole probe
Together with: salmon DNA 0.4 mg/ml
Reference: random background probes
Direction: higher = stronger binding
Constant ends, left off below: GCCTAGCAC … GTCTTGATTCGCTTGACGCTGCTG
Residues (chain): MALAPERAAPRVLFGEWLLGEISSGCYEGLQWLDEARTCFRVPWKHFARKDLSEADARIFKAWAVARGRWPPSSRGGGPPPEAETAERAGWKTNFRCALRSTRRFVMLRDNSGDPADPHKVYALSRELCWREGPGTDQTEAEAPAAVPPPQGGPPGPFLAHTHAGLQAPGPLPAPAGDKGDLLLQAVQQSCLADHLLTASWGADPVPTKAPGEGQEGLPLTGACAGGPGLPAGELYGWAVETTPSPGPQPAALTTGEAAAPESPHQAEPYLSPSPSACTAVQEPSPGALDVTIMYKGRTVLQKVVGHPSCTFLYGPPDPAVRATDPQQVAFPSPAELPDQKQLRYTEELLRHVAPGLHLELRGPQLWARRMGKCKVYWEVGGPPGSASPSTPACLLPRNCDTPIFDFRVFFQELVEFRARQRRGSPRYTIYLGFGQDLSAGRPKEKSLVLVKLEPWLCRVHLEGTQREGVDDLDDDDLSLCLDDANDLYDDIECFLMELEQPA
Sequence	fitted relative affinity [z-score]
GACGGTATCGGTCTCGGGTCGTGCTAG	0.499
AGAGCTGTCCTTTGCAACAGGTGCTAG	0.00796
GACGAACTGAGGTTCGAGACGTGCTAG	-0.164
TTCACTCTCTGCTTGTGTCTGTGCTAG	2.12
TTAGATCTCAGTATCGATGAGTGCTAG	-0.139
GACGGTATCGGGACTAGGGACGTGCTA	-0.41
GACGGTATCGGTCGCGGGACGTGCTAG	-0.279
CCACCACCAACACCAGTCATGTGCTAG	0.341

Block 2
SMILES: CO[C@H]1CC[C@H](CNc2ccc(S(=O)(=O)NC(=O)c3ccc(N4CCN(CC5=C(c6ccc(Cl)cc6)CC(C)(C)CC5)CC4)cc3Oc3cnc4[nH]ccc4c3)cc2[N+](=O)[O-])CC1
Effect on: cell-free assay
Method: competition with immobilised ligand
Concentration: 1 µM
target	remaining binding
TLK1 (Homo sapiens, UniProt Q9UKI8)	82%
PDPK1 (Homo sapiens, UniProt O15530)	72%
TBK1 (Homo sapiens, UniProt Q9UHD2)	60%
NEK9 (Homo sapiens, UniProt Q8TD19)	95%
NUAK2 (Homo sapiens, UniProt Q9H093)	95%

Block 3
Target: Aurora kinase B (AURKB, Homo sapiens, UniProt Q96GD4)
UniProt Q96GD4, sequence (whole entry, looked up): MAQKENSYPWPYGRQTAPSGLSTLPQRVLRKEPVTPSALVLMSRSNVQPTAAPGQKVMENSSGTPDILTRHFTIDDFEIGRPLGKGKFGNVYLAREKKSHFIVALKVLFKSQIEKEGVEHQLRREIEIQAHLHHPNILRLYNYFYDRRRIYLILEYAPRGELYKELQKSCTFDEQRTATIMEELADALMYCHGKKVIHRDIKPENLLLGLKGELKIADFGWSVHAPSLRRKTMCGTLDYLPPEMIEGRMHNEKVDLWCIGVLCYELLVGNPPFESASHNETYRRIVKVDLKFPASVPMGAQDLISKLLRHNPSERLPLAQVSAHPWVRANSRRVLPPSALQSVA
Effect on: enzyme activity
Action: inhibitor
Concentration: 0.5 µM
Reference: control
Compound	remaining activity
CNc1cc2c(Nc3cccc(Br)c3)ncnc2cn1	76.3%
CCCCc1c(-c2ccc(O)cc2)[nH]c2nccnc12	66.9%
CCN(CC)CCCCN1c2ccccc2Oc2ccc(Cl)cc21	94.1%
CC(C)N(CCC(=O)c1ccc2ccccc2c1)Cc1ccccc1	101%
Clc1ccc(Nc2nnc(Cc3ccncc3)c3ccccc23)cc1	90%

Block 4
Target: Fragile X messenger ribonucleoprotein 1, C-terminal low-complexity region (Fmr1, Mus musculus, UniProt P35922)
Method: RNA Bind-n-Seq
Molecule type: RNA
Sample: in vitro
Concentration: 200 nM
Setting: whole 134-nt RNA, ends assumed
Together with: 150 mM LiCl
Reference: input library
Direction: higher = stronger binding
All molecules: 7-deaza-guanosine replaces G
Sequence	log2 enrichment
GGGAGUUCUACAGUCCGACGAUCUUGGAUGAAGAUGGCAAAGUCCUGACCCCGGAGGAGCUGCUCUACCGGGUAAGGGGGCCUCCUCUGCCAGACCCUAGAGACCUCUCUGGGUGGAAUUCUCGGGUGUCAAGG	-1.55
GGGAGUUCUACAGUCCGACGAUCAGUCCUGUGCUACACAUCGUAUGUACCGAAUCGGGAAAAAAAGGGAGGGAAAAAGGGAAAGUAUUAUGUUACGCCGUUCGGAUCUGCACUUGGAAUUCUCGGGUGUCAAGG	-1.06
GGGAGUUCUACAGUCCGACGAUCAAGUCCUGUGCUACACAUCGUAUGUACCGAAUCGGGAAAAAAAGGGAAAGGGUGGGAAAGUAUUAUGUUACGCCGUUCGGAUCUGCACUUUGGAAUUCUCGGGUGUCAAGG	-1.26
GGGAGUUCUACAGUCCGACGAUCAGUCCUGUGCUACACAUCGUAUGUACCGAAUCGGUUUUUUUGGAAAGGAAAAAAAGGAAAGUAUUAUGUUACGCCGUUCGGAUCUGCACUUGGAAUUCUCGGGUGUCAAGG	-2.76
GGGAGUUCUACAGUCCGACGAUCAAGUCCUGUGCUACACAUCGUAUGUACCGAAUCAAACCCAAACCCCCAAAUUUAAAAAAGUAUUAUGUUACGCCGUUCGGAUCUGCACUUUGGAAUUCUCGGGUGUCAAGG	1.18
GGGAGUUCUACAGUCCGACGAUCUAACUUUAGAGGAGGAUCUGAUGGGUAUGGCAGUGGACGUGGAUUUGGGGAUGGCUAUAAUGGGUAUGGAGGAGGACCUGGAGGUGGCAAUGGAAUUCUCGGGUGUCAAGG	0.607
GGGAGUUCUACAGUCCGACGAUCUCCUGUGCUACACAUCGUAUGUACCGAAUCGGGGAGGGGAAAAAAAGGGGUUUUUGGGGAAAGUAUUAUGUUACGCCGUUCGGAUCUGCAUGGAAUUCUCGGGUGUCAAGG	0.318
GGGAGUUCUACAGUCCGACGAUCAAGUCCUGUGCUACACAUCGUAUGUACCGAAUCGGUUUUGGGUUUUGGGGUUUUGGAAAGUAUUAUGUUACGCCGUUCGGAUCUGCACUUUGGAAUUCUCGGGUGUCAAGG	-1.51
